Measured values gathered from unrelated publications.
Parts stem from different laboratories: compare values within a part only.

Series 1
Target: Sal-like protein 4, full length isoform A (SALL4, Homo sapiens, UniProt Q9UJQ4, residues 1-1053)
UniProt Q9UJQ4, sequence (whole entry, looked up): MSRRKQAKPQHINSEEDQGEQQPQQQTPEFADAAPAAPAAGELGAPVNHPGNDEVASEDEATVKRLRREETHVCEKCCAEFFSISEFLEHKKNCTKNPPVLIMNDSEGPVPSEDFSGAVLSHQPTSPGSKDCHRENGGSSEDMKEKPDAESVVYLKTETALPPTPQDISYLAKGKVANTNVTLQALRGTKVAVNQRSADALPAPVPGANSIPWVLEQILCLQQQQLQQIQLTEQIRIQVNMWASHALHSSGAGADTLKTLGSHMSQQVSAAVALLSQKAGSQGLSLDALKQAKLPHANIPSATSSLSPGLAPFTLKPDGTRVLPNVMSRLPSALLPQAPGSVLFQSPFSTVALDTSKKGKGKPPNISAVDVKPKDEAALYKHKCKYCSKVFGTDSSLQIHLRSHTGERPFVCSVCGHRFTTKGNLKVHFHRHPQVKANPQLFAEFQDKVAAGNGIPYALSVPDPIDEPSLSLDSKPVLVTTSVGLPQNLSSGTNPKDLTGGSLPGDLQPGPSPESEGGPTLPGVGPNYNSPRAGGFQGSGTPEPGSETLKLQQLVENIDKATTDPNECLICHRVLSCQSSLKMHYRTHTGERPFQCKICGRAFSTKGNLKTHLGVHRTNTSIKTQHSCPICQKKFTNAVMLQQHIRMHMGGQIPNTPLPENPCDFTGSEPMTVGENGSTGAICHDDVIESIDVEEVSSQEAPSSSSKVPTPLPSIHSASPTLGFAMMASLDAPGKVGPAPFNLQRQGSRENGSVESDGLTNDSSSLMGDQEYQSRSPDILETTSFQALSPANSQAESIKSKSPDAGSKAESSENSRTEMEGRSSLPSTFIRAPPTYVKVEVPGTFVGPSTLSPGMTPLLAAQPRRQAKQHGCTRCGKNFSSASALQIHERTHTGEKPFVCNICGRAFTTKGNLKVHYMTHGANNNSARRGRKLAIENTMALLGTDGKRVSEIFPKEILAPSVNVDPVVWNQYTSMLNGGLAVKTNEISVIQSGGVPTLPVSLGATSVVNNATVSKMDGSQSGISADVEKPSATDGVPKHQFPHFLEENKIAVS
Method: universal PBM
Molecule type: double-stranded DNA, one strand shown
Matrix: in vitro
Concentration: 600 nM
Notes: 8-mer, flanks averaged, mean of replicates
Direction: higher = stronger binding
Quantity: E-score
Oligonucleotide = GATCTTCA; result = 0.0565
Oligonucleotide = GGCGGAAC; result = -0.294
Oligonucleotide = ACCGACAC; result = -0.137
Oligonucleotide = ATTGCTGG; result = 0.0642
Oligonucleotide = CAAAGAGC; result = -0.141
Oligonucleotide = AATCCGTC; result = 0.0281
Oligonucleotide = CAGCGCTA; result = -0.103
Oligonucleotide = CGATTCCC; result = -0.106
Oligonucleotide = AATTTACA; result = 0.33
Oligonucleotide = GATGTCAA; result = 0.1
Oligonucleotide = CAACGATG; result = 0.0166
Oligonucleotide = AACTCGGA; result = -0.062
Oligonucleotide = AGAACTGC; result = -0.156
Oligonucleotide = GACATCGC; result = -0.187
Oligonucleotide = AAATGCAC; result = 0.0801
Oligonucleotide = CACTCTGG; result = -0.142
Oligonucleotide = GCCCATAA; result = 0.0675
Oligonucleotide = GAACAGCA; result = 0.0666

Series 2
Target: Prothrombin, mature alpha-thrombin (F2, Homo sapiens, UniProt P00734)
Method: aptamer microarray, sandwich
Molecule type: DNA with 2'F-ANA
Matrix: in vitro
Concentration: 200 nM
Notes: whole 15-mer aptamer, many near background
With: Cy3 exosite-II aptamer, 400 nM
Direction: higher = stronger binding
Quantity: mean fluorescence intensity
Oligonucleotide: GGTTGGTGTGGTTGG
Modification = 2'F-ANA at 1 3 4 8 9 11 12 13 14; result = 70.4 a.u.
Modification = 2'F-ANA at 3 5 8 10 11 14; result = 67 a.u.
Modification = 2'F-ANA at 3 4 7 9 10 13 14 15; result = 231 a.u.
Modification = 2'F-ANA at 1 3 5 6 7 8 9 10 12 15; result = 50.7 a.u.
Modification = 2'F-ANA at 1 2 3 4 6 7 8 9 10 12 13 15; result = 72.8 a.u.
Modification = 2'F-ANA at 2 7 11; result = 431 a.u.
Modification = 2'F-ANA at 1 3 5 6 7 8 9 11 12 13; result = 78.7 a.u.
Modification = 2'F-ANA at 1 10 14 15; result = 42.5 a.u.
Modification = 2'F-ANA at 1 9 10; result = 56.9 a.u.
Modification = 2'F-ANA at 3 6 7 8 12 13; result = 1210 a.u.
Modification = 2'F-ANA at 2 3 6 8 10 11 12; result = 350 a.u.
Modification = 2'F-ANA at 1 3 6 7 10 13 15; result = 74.6 a.u.
Modification = 2'F-ANA at 3 4 5 6 8 11 12 13 15; result = 115 a.u.
Modification = 2'F-ANA at 1 3 4 5 6 7 9 10 11 12 13 15; result = 54 a.u.
Modification = 2'F-ANA at 1 2 3 7 8 10 11 12 15; result = 98.1 a.u.
Modification = 2'F-ANA at 1 2 7 8 9 10 11 12 14 15; result = 49.8 a.u.
Modification = 2'F-ANA at 1 3 4 6 7 8 9 10 12; result = 88.5 a.u.
Modification = 2'F-ANA at 2 4 7 8 10 12 13 15; result = 109 a.u.
Modification = 2'F-ANA at 1 3 6 8 14 15; result = 148 a.u.

Series 3
Target: RNA binding protein fox-1 homolog 2, RRM domain, GST-SBP tag (RBFOX2, Homo sapiens, UniProt O43251-10, residues 100-194)
Method: RNA Bind-n-Seq
Molecule type: RNA
Matrix: in vitro
Concentration: 365 nM
Notes: natural RNA segment, single round, ends assumed
Relative to: no-protein control
Direction: higher = stronger binding
Quantity: RBNS enrichment (R)
Shared flanks, not repeated: GGGAGUUCUACAGUCCGACGAUC … UGGAAUUCUCGGGUGCCAA
Construct (chain): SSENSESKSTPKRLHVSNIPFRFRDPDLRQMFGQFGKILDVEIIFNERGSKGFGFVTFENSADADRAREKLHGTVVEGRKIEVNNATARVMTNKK
Oligonucleotide = AGAGAUGGGAUUUGGGGGUGAAUUUGUCAAUAUCUGGAUUUUAAUCCAGACAUCUCUGCUAACAAGCCUUUGGUAAGUCACUUCAGAUACUUUUCCUCCUUUUUACAAAG; result = 0.481
Oligonucleotide = GCUCCGCAUGGUUCAUUUUCUGAUGCCCACCGAGGAGCCCCAGCCCCGUCCCAGAGGCCGCUGCCCCUGAGUUCUGACACUGUGUGUUUGGGAAGGUGGGUGAGGCUGGG; result = 1.19
Oligonucleotide = CCCCUUAAAAAAAGAAAAAAAUUACCAAACAAUAAACUUGGCUAGACCUUGUUUUGAGGAUUUUACAAGACCUUUGUAGCGAUUAGAUUUUUUUUCUACAUUGAAAAUAG; result = 0.636
Oligonucleotide = CUCCACGGAGCCAGGCCUCCUCCCAUGGGGUGUCCCAGUGUAUAACUUUAUGACUUAGUUCUUCAUUUCCUGGGGCCUUAUCUUCACUGUGAACAAUAAAGUUUGAACAC; result = 0.305
Oligonucleotide = GCCCAGCGCCACGGGCCAGGAAGUACAAGUGUGGCCUGCCCCAGCCGUGUCCUGAGGAGCACCUGGCCUUCCGCGUGGUCAGCGGGGCCGCCAACGUCAUUGGGCCCAAG; result = 0.975
Oligonucleotide = AGGCAUGGGUGCAAGGAAAAUUAGGGUACUCAACCUAAGUUCGGUUCCGAUGAAUUCUUAUCCCCUGCCCCUUCCUUUAAAAAACUUAGUGACAAAAUAGACAAUUUGCA; result = 5.52
Oligonucleotide = CUCGGUACAAAGGGAAAACACUGAAUUGGCCCCAAAACACAGGAGCAAGCGUGUGGAUUUCCAUUGCAGAGCCCCUGUUUCAGGAUGCAAGAGUUUUCCAGCCCAAGGCA; result = 0.477
Oligonucleotide = CCCUGCGCCCCAUUUGAAUACGGCCAGAGCCUGCUGGUUCACUUUGGGUAGAGCCGUGCCUCUUGGGCAGGCUCCCAUAGUGACCACGUCCCCACGAAUGGGAAAGCACG; result = 1.29

Series 4
Target: Transcriptional repressor CTCF (CTCF, Homo sapiens, UniProt P49711, residues 1-727, full length assumed)
UniProt P49711, sequence (whole entry, looked up): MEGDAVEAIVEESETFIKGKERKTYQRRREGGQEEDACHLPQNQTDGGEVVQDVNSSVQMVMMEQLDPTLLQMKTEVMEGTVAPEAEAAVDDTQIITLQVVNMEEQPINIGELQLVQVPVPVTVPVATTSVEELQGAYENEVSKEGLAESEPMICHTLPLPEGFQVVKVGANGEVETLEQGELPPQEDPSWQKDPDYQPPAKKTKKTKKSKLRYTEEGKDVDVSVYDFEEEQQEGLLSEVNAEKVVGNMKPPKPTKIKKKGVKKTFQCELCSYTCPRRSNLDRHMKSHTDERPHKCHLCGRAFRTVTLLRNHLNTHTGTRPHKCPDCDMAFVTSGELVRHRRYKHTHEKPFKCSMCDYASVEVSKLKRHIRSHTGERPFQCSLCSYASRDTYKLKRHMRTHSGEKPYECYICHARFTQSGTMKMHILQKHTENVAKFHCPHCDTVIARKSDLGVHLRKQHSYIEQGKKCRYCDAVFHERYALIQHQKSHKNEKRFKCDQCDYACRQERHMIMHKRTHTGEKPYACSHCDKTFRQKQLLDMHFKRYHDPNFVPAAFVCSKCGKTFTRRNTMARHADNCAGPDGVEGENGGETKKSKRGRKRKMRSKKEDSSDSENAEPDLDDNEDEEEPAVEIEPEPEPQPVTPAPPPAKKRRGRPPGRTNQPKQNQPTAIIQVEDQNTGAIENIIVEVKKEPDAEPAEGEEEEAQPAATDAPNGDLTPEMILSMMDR
Method: protein-binding microarray
Molecule type: double-stranded DNA, one strand shown
Matrix: in vitro
Concentration: not given
Notes: k-mer, scored over probes, only values ≥0.25
Direction: higher = stronger binding
Quantity: E-score
Oligonucleotide = ATAAATAG; result = 0.278
Oligonucleotide = AAGTTATA; result = 0.252
Oligonucleotide = GTGCGCCA; result = 0.346
Oligonucleotide = ACGAATAA; result = 0.26
Oligonucleotide = GGTGGCGA; result = 0.336
Oligonucleotide = GGACGTTA; result = 0.257
Oligonucleotide = CGTTTATA; result = 0.267
Oligonucleotide = GATAAAAC; result = 0.273
Oligonucleotide = ACAATATA; result = 0.339
Oligonucleotide = CGGCGCCC; result = 0.263
Oligonucleotide = TATACATA; result = 0.287
Oligonucleotide = CACATATC; result = 0.261
Oligonucleotide = TAGTGCAA; result = 0.298
Oligonucleotide = GTATATAC; result = 0.325
Oligonucleotide = ACATATTA; result = 0.268
Oligonucleotide = ATTAGTCC; result = 0.26
Oligonucleotide = AATGTTTA; result = 0.281
Oligonucleotide = AGTAACAA; result = 0.278
Oligonucleotide = GGGTAAAA; result = 0.318
Oligonucleotide = AGAAACAT; result = 0.283

Excerpt of the above (series 1):
Oligonucleotide = AATTTACA; result = 0.33
Oligonucleotide = AGAACTGC; result = -0.156
Oligonucleotide = ATTGCTGG; result = 0.0642
Oligonucleotide = GACATCGC; result = -0.187
Oligonucleotide = CACTCTGG; result = -0.142
Oligonucleotide = AACTCGGA; result = -0.062
Oligonucleotide = GATCTTCA; result = 0.0565
Oligonucleotide = CGATTCCC; result = -0.106
Oligonucleotide = CAACGATG; result = 0.0166
